Values quoted from earlier work that unrelated publications cite.
Each line is one published result; not all experiments were run side by side. Converted amounts (≈) assume the structure as drawn.
UniProt Q99755, sequence (whole entry, looked up): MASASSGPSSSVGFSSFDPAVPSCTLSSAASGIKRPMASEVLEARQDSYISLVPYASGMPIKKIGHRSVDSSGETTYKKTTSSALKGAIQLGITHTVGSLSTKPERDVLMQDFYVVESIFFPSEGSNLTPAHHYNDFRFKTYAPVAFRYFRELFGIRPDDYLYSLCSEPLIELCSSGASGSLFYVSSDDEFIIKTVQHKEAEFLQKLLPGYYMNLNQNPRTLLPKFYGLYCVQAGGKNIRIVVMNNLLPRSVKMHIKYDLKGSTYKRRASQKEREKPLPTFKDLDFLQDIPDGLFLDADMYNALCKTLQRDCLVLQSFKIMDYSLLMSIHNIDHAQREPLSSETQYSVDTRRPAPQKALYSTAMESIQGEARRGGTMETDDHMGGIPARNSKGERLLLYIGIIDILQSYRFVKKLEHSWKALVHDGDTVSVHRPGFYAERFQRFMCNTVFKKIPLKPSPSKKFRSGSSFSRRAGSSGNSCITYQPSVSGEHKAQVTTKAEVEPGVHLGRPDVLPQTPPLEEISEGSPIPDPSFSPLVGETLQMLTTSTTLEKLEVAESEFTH

`CC(=O)OCC(CCn1cnc2cnc(N)nc21)COC(C)=O` has an oral bioavailability of 41% (rat).
`CCCCCOC(=O)c1ccc(O)cc1` has a logD of 3.18 (pH 7.4).
Under “Tmax at steady state”, `COc1cc(N2CCC(N3CCN(C)CC3)CC2)ccc1Nc1ncc(Cl)c(Nc2ccccc2P(C)(C)=O)n1` is recorded as 2.1 h (patients with cancer, plasma; median).
`CC1(C)S[C@@H]2[C@H](NC(=O)[C@H](N)c3ccccc3)C(=O)N2[C@H]1C(=O)O` gave an MIC of over 16 µg/mL (Enterobacter cloacae; clinical isolate RKI-No_287/13).
For `[H]/N=C(/N)N[C@H]1[C@H](O)[C@@H](O)[C@H](O[C@@H]2O[C@@H](C)[C@](O)(C=O)[C@H]2O[C@@H]2O[C@@H](CO)[C@H](O)[C@@H](O)[C@@H]2NC)[C@@H](N/C(N)=N\[H])[C@@H]1O`, the renal clearance was 0.47 mL/min/kg (human; median, range).
`Nc1cc(C(F)(F)F)c(-c2nc(N3CCOCC3)nc(N3CCOCC3)n2)cn1` has a remaining activity of 82% (PIP5K1A (Homo sapiens, UniProt Q99755); enzyme activity; 10 µM; reference: untreated).
With `CNC(=O)c1cc(Cl)c(OC(C)(C)C(=O)O)cc1OC[C@@H](O)CN1CCC2(CC1)Cc1cc(Cl)ccc1O2` the Tlast was 72 h (human, plasma; inhaled).
The Css,max of `CCN1CCN(Cc2ccc(Nc3ncc(F)c(-c4cc(F)c5nc(C)n(C(C)C)c5c4)n3)nc2)CC1` is reported as 298 ng/mL (human; 200 mg twice daily, monotherapy).
Under “treatment discontinuation rate”, `C[C@@H](Oc1cc(-c2cnn(C3CCNCC3)c2)cnc1N)c1c(Cl)ccc(F)c1Cl` is recorded as 5% (patients; dose not given, monotherapy, prior trial).
For `CC(O)(P(=O)(O)O)P(=O)(O)OP(=O)(O)OC[C@H]1O[C@@H](n2ccc(N)nc2=O)[C@@H](O)[C@@H]1O` (stereo partly shown), the hydrolysis half-life was 12 h (buffer; concentration not given, pH 7.4, 37 °C).
`C=C(F)C(=O)N1CCN(c2nc(OC[C@@H]3CCCN3C)nc3c2CCN(c2cccc4cccc(Cl)c24)C3)C[C@@H]1CC#N` — result for “oral clearance CL/F”: 37 L/h (patients, advanced solid tumours; oral, dose not given).
`CO[C@]1(C(=O)N[C@@H](C)c2ccc(-n3cc(F)cn3)nc2)CC[C@H](c2nc(C)cc(Nc3cc(C)[nH]n3)n2)CC1` — result for “metabolites by oxidation and glucuronidation”: about 5% (healthy human; reference: radioactivity).
`C[Si]1(C)O[Si](C)(C)O[Si](C)(C)O[Si](C)(C)O[Si](C)(C)O[Si](C)(C)O1`: “intercept A of log KOA vs 1/T” -4.39 (octanol/air).
With `COc1cc(N2CCC3(CCN(C)CC3)CC2)ccc1Nc1ncc(Cl)c(Nc2ccccc2P(C)(C)=O)n1` the excretion was 68.6% (human, feces; dose not given).
`O=C([O-])CC[C@H](NC(=O)N[C@@H](CCCCNC(=O)CCCCCCC(=O)NCCCC[C@@H](NC(=O)[C@@H](Cc1ccccc1)NC(=O)[C@@H](Cc1ccc(O)c(I)c1)NC(=O)CC[C@H](C(=O)[O-])N1CCN(CC(=O)[O-])CCN(CC(=O)[O-])CCN(CC(=O)[O-])CC1)C(=O)[O-])C(=O)[O-])C(=O)[O-].[177Lu+3].[H+].[H+].[H+].[H+].[H+]`: “peak kidney uptake ratio” about 40 fold (mouse; reference: cpd over [177Lu]Lu-PSMA-617).
`Cn1nnc2c(C(N)=O)ncn2c1=O` — result for “clinically relevant concentration”: 10 to 20 µmol/L (human patients).
`CCCCCCCCCCCCCCCC(=O)N[C@@H](CCC(=O)NCCCC[C@H](NC(=O)[C@H](C)NC(=O)[C@H](C)NC(=O)[C@H](CCC(N)=O)NC(=O)CNC(=O)[C@H](CCC(=O)O)NC(=O)[C@H](CC(C)C)NC(=O)[C@H](Cc1ccc(O)cc1)NC(=O)[C@H](CO)NC(=O)[C@H](CO)NC(=O)[C@@H](NC(=O)[C@H](CC(=O)O)NC(=O)[C@H](CO)NC(=O)[C@@H](NC(=O)[C@H](Cc1ccccc1)NC(=O)[C@@H](NC(=O)CNC(=O)[C@H](CCC(=O)O)NC(=O)[C@H](C)NC(=O)[C@@H](N)Cc1cnc[nH]1)[C@@H](C)O)[C@@H](C)O)C(C)C)C(=O)N[C@@H](CCC(=O)O)C(=O)N[C@@H](Cc1ccccc1)C(=O)N[C@H](C(=O)N[C@@H](C)C(=O)N[C@@H](Cc1c[nH]c2ccccc12)C(=O)N[C@@H](CC(C)C)C(=O)N[C@H](C(=O)N[C@@H](CCCNC(=N)N)C(=O)NCC(=O)N[C@@H](CCCNC(=N)N)C(=O)NCC(=O)O)C(C)C)[C@@H](C)CC)C(=O)O` — result for “acute pancreatitis incidence”: 0.3% (overweight or obese adults; 3.0 mg).
With `CNC(C)C1CCC(N)C(OC2C(N)CC(N)C(OC3OCC(C)(O)C(NC)C3O)C2O)O1` (stereo not shown) the MIC was 2 µg/mL (≈ 4.19 µM) (Enterobacter cloacae; clinical isolate RKI-No_5/14).
The intrinsic clearance of `Cc1cc(Nc2ccc(S(F)(F)(F)(F)F)cc2)n2ncnc2n1` is reported as under 6 µL/min/mg (mouse liver microsomes).
`N#Cc1ccc(-c2cc(=O)c3ccc4[nH]c(C(F)(F)F)nc4c3o2)cc1` has a brain/plasma ratio of about 1% (mouse; dose not given).
The plasma concentration of `N#C[C@@]1(c2ccc3c(N)ncnn23)O[C@H](CO)[C@@H](O)[C@H]1O` is reported as 4570 ng/mL (dog, plasma; intravenous, 2 mg/kg, 0.083 h, solution).
`CN(C)C(=O)c1cc2cnc(Nc3ccc(N4CCNCC4)cn3)nc2n1C1CCCC1` has a terminal half-life of 2 to 5 h (monkey and rodents).
For `CC(C)(c1ccc(O)cc1)c1ccc(O)cc1`, the half-life was 3 to 5 h (rat; dose not given).
Under “participants with TEAE”, `O=C(c1cccnc1-c1ccncc1)N1CCC(O)(Cc2ccccc2)CC1` is recorded as 68.8% (human adults; dose not given, open-label period).
The EC10 of `CCCC(CCC)C(=O)O` is reported as 59 µM (scoliosis or lordosis; zebrafish embryo; nominal concentration).

Excerpt of the above:
Under “participants with TEAE”, `O=C(c1cccnc1-c1ccncc1)N1CCC(O)(Cc2ccccc2)CC1` is recorded as 68.8% (human adults; dose not given, open-label period).
`CO[C@]1(C(=O)N[C@@H](C)c2ccc(-n3cc(F)cn3)nc2)CC[C@H](c2nc(C)cc(Nc3cc(C)[nH]n3)n2)CC1` — result for “metabolites by oxidation and glucuronidation”: about 5% (healthy human; reference: radioactivity).
